Literature values as cited in several papers.
Compare with care: the assays were run in different laboratories. ± marks the error that the study gave.
Chain of UniProt Q01959 (whole entry, looked up): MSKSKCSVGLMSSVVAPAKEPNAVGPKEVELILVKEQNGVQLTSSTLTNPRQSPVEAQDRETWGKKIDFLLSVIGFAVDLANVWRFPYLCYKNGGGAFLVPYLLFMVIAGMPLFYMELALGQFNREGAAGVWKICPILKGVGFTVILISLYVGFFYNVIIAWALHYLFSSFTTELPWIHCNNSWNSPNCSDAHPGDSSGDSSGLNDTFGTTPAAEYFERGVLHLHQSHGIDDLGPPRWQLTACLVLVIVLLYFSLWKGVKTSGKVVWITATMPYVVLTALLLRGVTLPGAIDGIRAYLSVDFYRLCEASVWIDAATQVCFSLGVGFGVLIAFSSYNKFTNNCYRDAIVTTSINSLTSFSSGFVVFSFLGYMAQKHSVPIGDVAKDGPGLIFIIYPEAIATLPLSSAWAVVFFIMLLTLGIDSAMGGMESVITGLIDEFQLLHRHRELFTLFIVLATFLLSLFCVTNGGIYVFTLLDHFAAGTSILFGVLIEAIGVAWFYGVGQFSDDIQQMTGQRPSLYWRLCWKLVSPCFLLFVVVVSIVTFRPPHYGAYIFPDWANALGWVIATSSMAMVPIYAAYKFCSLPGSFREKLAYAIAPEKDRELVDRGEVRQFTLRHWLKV
Chain of UniProt P07148 (whole entry, looked up): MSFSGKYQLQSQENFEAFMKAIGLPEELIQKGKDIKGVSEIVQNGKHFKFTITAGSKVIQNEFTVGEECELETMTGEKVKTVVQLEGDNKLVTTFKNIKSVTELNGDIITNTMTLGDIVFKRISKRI
Chain of UniProt P41145 (whole entry, looked up): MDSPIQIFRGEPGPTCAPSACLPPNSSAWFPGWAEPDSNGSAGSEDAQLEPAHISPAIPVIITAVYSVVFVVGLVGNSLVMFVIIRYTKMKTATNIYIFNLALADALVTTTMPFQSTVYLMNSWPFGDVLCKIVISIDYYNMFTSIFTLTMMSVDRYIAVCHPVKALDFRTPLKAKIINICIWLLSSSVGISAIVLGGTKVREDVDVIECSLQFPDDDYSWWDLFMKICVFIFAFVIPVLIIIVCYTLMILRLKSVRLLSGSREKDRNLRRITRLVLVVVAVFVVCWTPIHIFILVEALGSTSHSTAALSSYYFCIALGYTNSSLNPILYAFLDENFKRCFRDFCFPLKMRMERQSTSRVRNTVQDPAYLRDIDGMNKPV

SMILES	target	observed	technique	notes	with	endpoint	value
OC[C@H]1N[C@H](CO)[C@@H](O)[C@@H]1O	yeast α-glucosidase	–	–	–	–	Ki	330 nM
COC(=O)C1C(c2ccc(C)cc2)CC2CCC1N2CC=CC[18F] (stereo not shown)	Sodium-dependent dopamine transporter (SLC6A3, Homo sapiens, UniProt Q01959)	–	–	–	–	Ki	26 nM
Cc1cc(-c2ccccc2)n2nc(C(=O)Nc3sc4c(c3C(N)=O)CCCCC4)nc2n1	Polymerase acidic protein, with PB1, PB2 (Influenza A virus, UniProt P03433)	RdRP activity	minireplicon	–	–	IC50	12000 nM
CCCCCn1cc(C(=O)c2cccc3c2CC(C)(C)C3)c2ccccc21	cannabinoid receptor CB2	binding	–	–	–	Ki	1.36 ± 0.52 nM
CCCCCc1cc(O)c2c(c1)OC(C)(C)[C@@H]1CCC(CO)=C[C@@H]21	Fatty acid-binding protein, liver (FABP1, Homo sapiens, UniProt P07148)	binding	–	previously reported	–	Kd	7100 nM
CC(C)N(CCc1c[nH]c2ccc(O)cc12)C(C)C	5-HT2A receptor	binding	–	–	–	Ki	5.6 nM
CCOC(=O)C1C(OC(c2ccc(Cl)cc2)c2ccc(Cl)cc2)CC2CCC1N2C (single isomer, unassigned)	dopamine transporter	–	–	–	–	Ki	14.6 ± 0.39 nM
CCCCCn1cc(C(=O)N2CCN(C)CC2)c2ccccc21	cannabinoid CB2 receptor	binding	–	–	–	Ki	> 1000 nM
C[C@@H]1N=C[C@H](O)[C@H]1O	Penicillium decumbens α-L-rhamnosidase	–	–	–	–	Ki	140 nM
O=C(N[C@H]1CC[C@@]2(O)[C@H]3Cc4ccc(O)c5c4[C@@]2(CCN3CC2CC2)[C@H]1O5)c1cccc2ccoc12	Kappa-type opioid receptor (OPRK1, Homo sapiens, UniProt P41145)	binding	–	–	[3H]diprenorphine	Ki	5.12 ± 0.96 nM

Excerpt of the above:
SMILES	target	observed	technique	notes	with	endpoint	value
C[C@@H]1N=C[C@H](O)[C@H]1O	Penicillium decumbens α-L-rhamnosidase	–	–	–	–	Ki	140 nM
